# Measurements pooled from the literature.
# Parts stem from different laboratories: compare values within a part only.
# Chain of UniProt Q96J92 (whole entry, looked up): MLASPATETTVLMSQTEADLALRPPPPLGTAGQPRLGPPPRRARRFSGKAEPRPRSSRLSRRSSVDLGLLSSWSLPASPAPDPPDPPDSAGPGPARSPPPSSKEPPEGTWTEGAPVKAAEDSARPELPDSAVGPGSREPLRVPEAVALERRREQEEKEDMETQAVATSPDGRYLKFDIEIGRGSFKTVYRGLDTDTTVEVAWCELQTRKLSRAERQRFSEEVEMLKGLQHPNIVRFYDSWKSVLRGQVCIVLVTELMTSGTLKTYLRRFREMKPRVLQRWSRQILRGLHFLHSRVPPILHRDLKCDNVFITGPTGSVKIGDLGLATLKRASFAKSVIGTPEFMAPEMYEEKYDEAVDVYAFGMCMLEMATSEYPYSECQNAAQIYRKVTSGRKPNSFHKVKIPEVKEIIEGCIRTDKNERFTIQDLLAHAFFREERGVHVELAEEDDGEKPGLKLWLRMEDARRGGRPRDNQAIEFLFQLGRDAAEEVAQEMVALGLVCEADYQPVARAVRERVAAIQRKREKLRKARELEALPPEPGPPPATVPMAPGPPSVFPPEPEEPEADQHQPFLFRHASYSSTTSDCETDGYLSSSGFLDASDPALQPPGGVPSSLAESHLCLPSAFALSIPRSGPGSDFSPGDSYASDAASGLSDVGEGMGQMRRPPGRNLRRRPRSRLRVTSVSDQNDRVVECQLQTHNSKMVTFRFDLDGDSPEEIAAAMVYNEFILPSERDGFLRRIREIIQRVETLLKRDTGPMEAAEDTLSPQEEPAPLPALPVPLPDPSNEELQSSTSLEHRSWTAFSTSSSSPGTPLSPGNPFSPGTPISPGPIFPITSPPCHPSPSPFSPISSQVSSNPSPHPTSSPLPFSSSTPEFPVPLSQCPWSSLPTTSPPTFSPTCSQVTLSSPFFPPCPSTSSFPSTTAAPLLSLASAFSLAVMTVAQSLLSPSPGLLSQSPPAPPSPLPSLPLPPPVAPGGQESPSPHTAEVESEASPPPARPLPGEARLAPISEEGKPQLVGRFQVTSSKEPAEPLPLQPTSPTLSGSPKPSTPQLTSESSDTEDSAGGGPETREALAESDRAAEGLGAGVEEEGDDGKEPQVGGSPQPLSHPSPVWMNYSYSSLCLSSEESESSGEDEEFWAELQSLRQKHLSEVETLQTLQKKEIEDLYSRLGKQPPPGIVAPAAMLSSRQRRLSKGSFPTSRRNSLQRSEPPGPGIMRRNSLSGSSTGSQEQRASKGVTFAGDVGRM
# Chain of UniProt P42684 (whole entry, looked up): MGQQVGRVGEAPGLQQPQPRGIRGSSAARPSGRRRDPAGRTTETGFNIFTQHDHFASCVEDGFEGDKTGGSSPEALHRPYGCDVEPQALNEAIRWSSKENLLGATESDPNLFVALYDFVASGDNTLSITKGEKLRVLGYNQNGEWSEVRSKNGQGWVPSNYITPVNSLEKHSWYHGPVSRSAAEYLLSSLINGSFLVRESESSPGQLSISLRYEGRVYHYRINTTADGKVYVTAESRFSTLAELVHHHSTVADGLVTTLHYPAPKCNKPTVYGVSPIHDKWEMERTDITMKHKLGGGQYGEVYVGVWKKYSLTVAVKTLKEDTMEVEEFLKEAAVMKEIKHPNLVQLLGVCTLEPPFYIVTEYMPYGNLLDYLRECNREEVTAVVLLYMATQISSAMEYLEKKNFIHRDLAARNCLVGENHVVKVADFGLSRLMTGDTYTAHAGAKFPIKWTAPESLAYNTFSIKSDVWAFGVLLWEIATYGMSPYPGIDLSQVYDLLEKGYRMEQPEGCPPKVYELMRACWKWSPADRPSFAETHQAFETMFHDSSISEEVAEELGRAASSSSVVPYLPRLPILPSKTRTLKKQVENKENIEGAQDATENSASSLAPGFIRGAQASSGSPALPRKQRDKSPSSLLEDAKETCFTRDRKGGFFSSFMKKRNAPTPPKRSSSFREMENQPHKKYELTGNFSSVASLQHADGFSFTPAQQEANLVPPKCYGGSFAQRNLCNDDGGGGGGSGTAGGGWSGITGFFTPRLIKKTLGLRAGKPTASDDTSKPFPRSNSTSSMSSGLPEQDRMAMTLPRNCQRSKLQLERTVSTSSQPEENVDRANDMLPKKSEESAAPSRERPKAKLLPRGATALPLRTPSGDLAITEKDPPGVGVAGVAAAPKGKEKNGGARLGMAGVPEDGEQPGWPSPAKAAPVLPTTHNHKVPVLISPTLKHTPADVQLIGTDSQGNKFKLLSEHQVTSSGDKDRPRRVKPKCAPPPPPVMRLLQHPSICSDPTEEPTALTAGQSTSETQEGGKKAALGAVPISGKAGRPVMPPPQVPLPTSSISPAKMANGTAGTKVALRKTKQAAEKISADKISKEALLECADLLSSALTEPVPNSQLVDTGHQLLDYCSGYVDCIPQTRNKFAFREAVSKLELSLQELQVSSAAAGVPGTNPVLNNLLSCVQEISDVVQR

# Series 1
# Target: Proto-oncogene tyrosine-protein kinase ROS (ROS1, Homo sapiens, UniProt P08922)
# Chain of UniProt P08922 (whole entry, looked up): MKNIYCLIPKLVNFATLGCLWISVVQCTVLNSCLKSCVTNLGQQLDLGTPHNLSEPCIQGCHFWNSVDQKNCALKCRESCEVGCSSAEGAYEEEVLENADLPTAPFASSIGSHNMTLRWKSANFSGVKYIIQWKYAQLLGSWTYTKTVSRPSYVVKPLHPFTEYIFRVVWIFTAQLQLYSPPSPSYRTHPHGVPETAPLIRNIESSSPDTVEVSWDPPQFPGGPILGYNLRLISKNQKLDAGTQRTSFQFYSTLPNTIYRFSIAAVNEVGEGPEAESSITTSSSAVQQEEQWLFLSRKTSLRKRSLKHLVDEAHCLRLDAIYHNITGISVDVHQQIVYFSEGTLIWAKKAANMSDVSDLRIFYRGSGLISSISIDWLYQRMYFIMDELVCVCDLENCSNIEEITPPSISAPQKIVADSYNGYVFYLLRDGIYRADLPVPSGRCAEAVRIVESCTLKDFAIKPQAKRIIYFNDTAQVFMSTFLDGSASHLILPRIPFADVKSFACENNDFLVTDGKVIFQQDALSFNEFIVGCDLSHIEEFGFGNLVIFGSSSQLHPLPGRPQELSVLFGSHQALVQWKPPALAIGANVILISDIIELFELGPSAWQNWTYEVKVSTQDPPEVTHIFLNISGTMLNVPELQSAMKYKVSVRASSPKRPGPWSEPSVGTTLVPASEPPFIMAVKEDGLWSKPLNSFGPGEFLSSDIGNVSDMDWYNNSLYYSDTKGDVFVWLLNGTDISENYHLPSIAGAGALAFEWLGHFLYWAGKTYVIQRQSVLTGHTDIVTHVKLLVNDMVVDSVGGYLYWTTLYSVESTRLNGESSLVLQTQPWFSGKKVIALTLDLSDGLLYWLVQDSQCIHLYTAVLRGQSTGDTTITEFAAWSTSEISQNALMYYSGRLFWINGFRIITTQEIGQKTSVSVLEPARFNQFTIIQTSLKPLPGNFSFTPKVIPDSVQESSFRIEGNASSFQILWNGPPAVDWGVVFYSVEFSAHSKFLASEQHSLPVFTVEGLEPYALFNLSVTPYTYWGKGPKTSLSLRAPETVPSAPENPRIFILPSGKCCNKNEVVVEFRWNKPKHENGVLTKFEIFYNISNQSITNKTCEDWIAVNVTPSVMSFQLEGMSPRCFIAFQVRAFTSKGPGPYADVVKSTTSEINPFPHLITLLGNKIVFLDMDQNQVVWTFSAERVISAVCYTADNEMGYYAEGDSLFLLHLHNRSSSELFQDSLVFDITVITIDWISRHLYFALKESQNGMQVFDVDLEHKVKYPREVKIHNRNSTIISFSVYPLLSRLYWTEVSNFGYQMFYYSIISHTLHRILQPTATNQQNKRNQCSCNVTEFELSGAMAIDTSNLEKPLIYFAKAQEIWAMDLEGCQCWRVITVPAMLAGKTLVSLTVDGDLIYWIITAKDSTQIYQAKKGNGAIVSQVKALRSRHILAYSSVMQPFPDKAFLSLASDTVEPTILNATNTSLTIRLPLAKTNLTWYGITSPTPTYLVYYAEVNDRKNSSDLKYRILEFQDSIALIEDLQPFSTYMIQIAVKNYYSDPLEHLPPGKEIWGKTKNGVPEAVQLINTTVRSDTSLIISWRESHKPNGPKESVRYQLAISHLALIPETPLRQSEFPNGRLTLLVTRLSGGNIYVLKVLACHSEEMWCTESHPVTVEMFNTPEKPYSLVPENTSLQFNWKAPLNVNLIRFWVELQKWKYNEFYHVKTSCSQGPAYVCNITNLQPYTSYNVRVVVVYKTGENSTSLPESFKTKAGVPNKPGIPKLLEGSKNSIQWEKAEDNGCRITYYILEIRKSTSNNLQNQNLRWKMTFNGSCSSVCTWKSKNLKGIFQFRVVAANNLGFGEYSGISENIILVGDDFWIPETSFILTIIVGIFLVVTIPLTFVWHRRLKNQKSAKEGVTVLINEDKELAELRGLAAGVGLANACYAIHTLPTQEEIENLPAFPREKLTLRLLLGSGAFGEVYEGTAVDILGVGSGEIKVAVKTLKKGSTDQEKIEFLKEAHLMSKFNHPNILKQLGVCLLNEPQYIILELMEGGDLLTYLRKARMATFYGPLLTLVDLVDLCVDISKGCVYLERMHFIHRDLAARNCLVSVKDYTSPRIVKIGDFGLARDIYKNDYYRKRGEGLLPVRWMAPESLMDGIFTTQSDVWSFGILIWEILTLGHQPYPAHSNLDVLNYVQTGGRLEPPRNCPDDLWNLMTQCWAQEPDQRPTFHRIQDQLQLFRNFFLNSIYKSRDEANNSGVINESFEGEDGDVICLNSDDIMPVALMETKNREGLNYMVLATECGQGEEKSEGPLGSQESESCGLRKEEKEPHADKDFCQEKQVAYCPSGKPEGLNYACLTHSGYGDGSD
# Read-out: enzyme activity
# Mode: inhibitor
# Tested at: 0.5 µM
# Reference: control
Structure (SMILES),remaining activity [%]
O=C1NC(=O)C(c2cn(CCCO)c3ncccc23)=C1c1cnccn1,106
CC(C)[C@H](CO)Nc1nc(Nc2cc(N)cc(Cl)c2)c2ncn(C(C)C)c2n1,96.5
COc1ccc(CNC(=O)Nc2ncc([N+](=O)[O-])s2)cc1,100
CCOC(=O)c1c(C)[nH]c(/C=C2\C(=O)Nc3ccccc32)c1C,99.1
Cn1sc(=O)n(Cc2ccccc2)c1=O,103
O=C1NC(=O)C(c2cn(CCCn3ccnc3)c3ccccc23)=C1Nc1ccccc1,78.7
Cc1cccc(-c2[nH]c(C(C)(C)C)nc2-c2ccc3c(c2)OCO3)n1,101
Cn1c2ccccc2c2c3c(c4c5ccccc5n(CCC#N)c4c21)CNC3=O,1.18
Cc1ccc(NC(=O)c2ccc(CN3CCN(C)CC3)cc2)cc1Nc1nc(-c2cccnc2)cs1,91.5
O=C(CCCc1ccc(-c2ccccc2F)cc1)Nc1ccc(O)cc1,98.4
C#Cc1cccc(Nc2ncnc3cc(OCCOC)c(OCCOC)cc23)c1,99.6
CO[C@H]1C[C@@H]2CC[C@@H](C)[C@@](O)(O2)C(=O)C(=O)N2CCCC[C@H]2C(=O)O[C@H]([C@H](C)C[C@@H]2CC[C@@H](O)[C@H](OC)C2)CC(=O)[C@H](C)/C=C(\C)[C@@H](O)[C@@H](OC)C(=O)[C@H](C)C[C@H](C)/C=C/C=C/C=C/1C,85
COc1cc2ncnc(Nc3ccc(Oc4ccccc4)cc3)c2cc1OC,95.3
Cc1ccc(Nc2nccc(N(C)c3ccc4c(C)n(C)nc4c3)n2)cc1S(N)(=O)=O,17

# Series 2
# Compound: O=C(NS(=O)(=O)c1ccc(NCC2CCOCC2)c([N+](=O)[O-])c1)c1ccc(N2CCN(Cc3ccc(C(F)(F)F)cc3-c3ccc(Cl)cc3)CC2)cc1Oc1cnc2[nH]ccc2c1
# Read-out: cell-free assay
# Method: competition with immobilised ligand
# Tested at: 1 µM
target,remaining binding [%]
"Discoidin domain-containing receptor 2 (DDR2, Homo sapiens, UniProt Q16832)",90
"Epidermal growth factor receptor (EGFR, Homo sapiens, UniProt P00533, A750P/del747-749)",86
"Tyrosine-protein kinase JAK3, JH1 (JAK3, Homo sapiens, UniProt P52333)",85
"Rho-associated protein kinase 2 (ROCK2, Homo sapiens, UniProt O75116)",100
"Tyrosine-protein kinase ABL2 (ABL2, Homo sapiens, UniProt P42684)",100
"Serine/threonine-protein kinase WNK4 (WNK4, Homo sapiens, UniProt Q96J92)",71
"Epidermal growth factor receptor (EGFR, Homo sapiens, UniProt P00533, del747-752/P753S)",96
"Serine/threonine-protein kinase DCLK2 (DCLK2, Homo sapiens, UniProt Q8N568)",100
"Receptor-type tyrosine-protein kinase FLT3 (FLT3, Homo sapiens, UniProt P36888, K663Q)",100
"Dual specificity protein kinase CLK2 (CLK2, Homo sapiens, UniProt P49760)",99
"Receptor-type tyrosine-protein kinase FLT3 (FLT3, Homo sapiens, UniProt P36888, ITD)",100
"Ribosomal protein S6 kinase alpha-3, C-terminal kinase domain (RPS6KA3, Homo sapiens, UniProt P51812)",100
"Serine/threonine-protein kinase VRK2 (VRK2, Homo sapiens, UniProt Q86Y07)",89
"Insulin receptor-related protein (INSRR, Homo sapiens, UniProt P14616)",98
"Tyrosine-protein kinase Fer (FER, Homo sapiens, UniProt P16591)",94
"Tyrosine-protein kinase Blk (BLK, Homo sapiens, UniProt P51451)",84

# Series 3
# Target: Prothrombin, mature alpha-thrombin (F2, Homo sapiens, UniProt P00734)
# Method: aptamer microarray, sandwich
# Form: DNA with 2'F-ANA
# Sample: in vitro
# Tested at: 200 nM
# Setting: whole 15-mer aptamer, many near background
# Added: Cy3 exosite-II aptamer, 400 nM
# Direction: higher = stronger binding
# Sequence: GGTTGGTGTGGTTGG
Modification,mean fluorescence intensity [a.u.]
2'F-ANA at 2 4 5 7 9 15,66.9
2'F-ANA at 1 2 3 6 7 9 12 13 15,270
2'F-ANA at 2 3 8 9 10 12 15,433
2'F-ANA at 2 6 8 10 12 13 14,90
2'F-ANA at 2 4 6 7 9 11 15,186
2'F-ANA at 1 3 7 11 13 15,269
2'F-ANA at 3 6 8 9 10 11 12 14 15,336
2'F-ANA at 1 5 7 9 11 13 15,49.5

# Series 4
# Target: TAR DNA-binding protein 43, full length, His tag (TARDBP, Homo sapiens, UniProt Q13148, residues 1-414)
# Method: RNA Bind-n-Seq
# Form: RNA
# Sample: in vitro
# Tested at: 20 nM
# Setting: 6-mer, flanks averaged, single round
# Added: 150 mM KCl
# Reference: input library
# Direction: higher = stronger binding
Sequence,6-mer enrichment (R)
CGGGUA,1.88
GAUGUG,1.54
UGUUUC,0.645
GAGUAU,0.92
ACCUAA,0.612
CCUUCU,0.586
AAAGCG,0.894
CUUAGU,0.606

# Some of these lines once more (series 4):
Sequence,6-mer enrichment (R)
UGUUUC,0.645
GAGUAU,0.92
ACCUAA,0.612
CCUUCU,0.586
AAAGCG,0.894
CUUAGU,0.606
